Experimental data collected from several papers.
Cell line: THP-1

Cc1ccc(S(=O)(=O)/C=C/C#N)cc1
IC50 (TNF-alpha production, inhibitor; added: LPS): 1200 nM

O=C(O)c1cc(O)c2c(c1)C(=O)c1cccc(O)c1C2=O
IC50 (cell growth or viability, ATP luminescence; 24 h): 158000 nM

Cc1cccc2c(=O)c3cccc(CC(=O)O)c3oc12
IRF3 activation (IRF3 luciferase reporter; up to 1 mM, 4 h, added: c-di-GMP): inactive

C=C1C(=O)O[C@@H]2[C@H]1CC[C@H](C)[C@@H]1CCC(=O)[C@@]21C
EC50 (antioxidant effect, OPT fluorometric glutathione, measured: redox index GSH/total glutathione; cell extract): > 100000 nM

CCCC1(C)C(C#N)(C#N)C1(C#N)C#N
IC50 (TNF-α release, inhibitor, ELISA; 17 h, LPS-stimulated): 660 nM

COc1c(OC)c(O)c2c(=O)cc(-c3ccc(O)cc3)oc2c1OC
Emax of redox index (antioxidant effect, OPT fluorometric glutathione, measured: GSH/(GSH + GSSG); cell extract; reference: 1 = all glutathione reduced, higher = more antioxidant): 0.93

O=C(O)Cc1cccc2c(=O)cc(-c3ccccc3)oc12
IRF3 activation (IRF3 luciferase reporter; up to 1 mM, 4 h, added: c-di-GMP): inactive

O=c1cc(-c2ccccc2)oc2cc(O)cc(O)c12
IC50 (cell growth or viability, ATP luminescence; 24 h): 500000 nM

Oc1ccc(/C=C/c2cc(O)cc(O)c2)cc1
EC50 (antioxidant effect, OPT fluorometric glutathione, measured: redox index GSH/total glutathione; cell extract): 1850 nM

O=C(Nc1nc2ccccc2n1CCN1CCOCC1)c1cccc([N+](=O)[O-])c1
IC50 (TNF-α release, inhibitor, ELISA; 17 h, LPS-stimulated): 520 nM

Cc1cc(O)c2c(c1)C(=O)c1cc(O)cc(O)c1C2=O
IC50 (cell growth or viability, ATP luminescence; 24 h): 10000 nM

COc1ccc(-c2cc(=O)c3cc(OC)ccc3o2)c(OC)c1
EC50 (antioxidant effect, OPT fluorometric glutathione, measured: redox index GSH/total glutathione; cell extract): 3790 nM

CC(C)(C)c1ccc(S(=O)(=O)/C=C/C#N)cc1
IC50 (TNF-α production, HTRF; 17 h, added: 1 µg/mL LPS): 1430 nM

For quick reference, copied from above:
Cc1ccc(S(=O)(=O)/C=C/C#N)cc1
IC50 (TNF-alpha production, inhibitor; added: LPS): 1200 nM

CC(C)(C)c1ccc(S(=O)(=O)/C=C/C#N)cc1
IC50 (TNF-α production, HTRF; 17 h, added: 1 µg/mL LPS): 1430 nM
